Results collected from several papers.
Compare with care: the assays were run in different laboratories. ± marks the error that the study gave.
Sequence of UniProt P21729 (whole entry, looked up): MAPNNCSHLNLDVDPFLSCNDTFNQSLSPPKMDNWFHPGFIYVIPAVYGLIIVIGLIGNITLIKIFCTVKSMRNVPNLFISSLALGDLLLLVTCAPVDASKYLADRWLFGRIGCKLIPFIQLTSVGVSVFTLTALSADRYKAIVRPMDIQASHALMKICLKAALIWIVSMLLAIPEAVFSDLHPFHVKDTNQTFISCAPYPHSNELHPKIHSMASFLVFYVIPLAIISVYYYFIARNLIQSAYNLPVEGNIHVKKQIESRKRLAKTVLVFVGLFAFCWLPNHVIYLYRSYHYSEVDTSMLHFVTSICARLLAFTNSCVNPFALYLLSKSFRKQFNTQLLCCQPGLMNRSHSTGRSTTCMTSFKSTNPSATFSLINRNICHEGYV

| SMILES | tested on | assay | system | setting | how to read | endpoint | value |
| --- | --- | --- | --- | --- | --- | --- | --- |
| N=C(N)NCCC[C@@H]1NC(=O)[C@H](CCCCNC(=O)CCOCCOCCOCCOCCNC(=O)CC[C@H](NC(=O)CCOCCOCCOCCOCCNC(=O)CC[C@H](NC(=O)CN2CCN(CC(=O)O)CCN(CC(=O)O)CCN(CC(=O)O)CC2)C(=O)NCCOCCOCCOCCOCCC(=O)N[C@@H](CCC(=O)NCCOCCOCCOCCOCCC(=O)NCCCC[C@@H]2NC(=O)[C@@H](Cc3ccccc3)NC(=O)[C@H](CC(=O)O)NC(=O)CNC(=O)[C@H](CCCNC(=N)N)NC2=O)C(=O)NCCOCCOCCOCCOCCC(=O)NCCCC[C@@H]2NC(=O)[C@@H](Cc3ccccc3)NC(=O)[C@H](CC(=O)O)NC(=O)CNC(=O)[C@H](CCCNC(=N)N)NC2=O)C(=O)NCCOCCOCCOCCOCCC(=O)NCCCC[C@@H]2NC(=O)[C@@H](Cc3ccccc3)NC(=O)[C@H](CC(=O)O)NC(=O)CNC(=O)[C@H](CCCNC(=N)N)NC2=O)NC(=O)[C@@H](Cc2ccccc2)NC(=O)[C@H](CC(=O)O)NC(=O)CNC1=O [indium-111 labelled] |  |  | athymic nude mice, female, U-87 MG glioma xenograft, tumour and kidney | intravenous, 72 h | baseline: tumour over kidney | tumour to tissue ratio | 1 ± 0.21 |
| CCCNC(=O)[C@H](CC(C)C)NC(=O)[C@H](Cc1c[nH]cn1)NC(=O)CNC(=O)[C@@H](NC(=O)[C@H](C)NC(=O)[C@H](Cc1c[nH]c2ccccc12)NC(=O)[C@H](CCC(N)=O)NC(=O)[C@@H](Cc1ccccc1)NC(=O)CCCCCNC(=O)CN1CCN(CC(=O)O)CCN(CC(=O)O)CCN(CC(=O)O)CC1)C(C)C [indium-111 labelled] | Gastrin-releasing peptide receptor (Mus musculus, UniProt P21729) | biodistribution | CF-1 mice, kidneys | intravenous, 1 h, with: bombesin 100 µg, blocking |  | tissue uptake | 1.44 ± 0.26 %ID/g |
| CCCC[C@H](NC(=O)CNC(=O)CNC(=O)c1ccc(NN)nc1)C(=O)N[C@H]1CC(=O)NCCCC[C@@H](C(N)=O)NC(=O)[C@H](Cc2c[nH]c3ccccc23)NC(=O)[C@H](CCCNC(=N)N)NC(=O)[C@@H](Cc2ccccc2)NC(=O)[C@H](Cc2c[nH]cn2)NC1=O [technetium-99m labelled] |  |  | C57 mouse, B16/F1 melanoma, skin | 2 h, with: NDP-MSH 6.07 nmol blockade |  | uptake | 0.34 ± 0.13 %ID/g |
| N=C(N)NCCC[C@@H]1NC(=O)[C@H](CCCCNC(=O)CCOCCOCCOCCOCCNC(=O)CN2CCN(CC(=O)O)CCN(CC(=O)O)CCN(CC(=O)O)CC2)NC(=O)[C@@H](Cc2ccccc2)NC(=O)[C@H](CC(=O)O)NC(=O)CNC1=O [indium-111 labelled] |  |  | athymic nude mice, female, U-87 MG glioma xenograft, tumour and blood | intravenous, 1 h | baseline: tumour over blood | tumour to tissue ratio | 4.04 ± 0.7 |
| CC(C)(C)n1cc(CN(Cc2cn(CCOCCOCCOCCOCCOCCOCCC(=O)N[C@@H](CCCNC(=N)N)C(=O)N[C@@H](CCCCN)C(=O)N[C@@H](CCCCN)C(=O)N[C@@H](CCCNC(=N)N)C(=O)N[C@@H](CCCNC(=N)N)C(=O)N[C@@H](CCC(N)=O)C(=O)N[C@@H](CCCNC(=N)N)C(=O)N[C@@H](CCCNC(=N)N)C(=O)N[C@@H](CCCNC(=N)N)C(N)=O)nn2)Cc2cn(C(C)(C)C)nn2)nn1 | OVCAR-5 | cellular uptake, LC-ESI-MS/MS |  | 200 µM, 10 min, with: CuSO4 100 µM and ascorbate 500 µM |  | intracellular concentration | 69 ± 2 µM |
| N=C(N)NCCC[C@@H]1NC(=O)[C@H](CCCCNC(=O)CC[C@H](NC(=O)CCOCCOCCOCCOCCNC(=O)CC[C@H](NC(=O)CN2CCN(CC(=O)O)CCN(CC(=O)O)CCN(CC(=O)O)CC2)C(=O)NCCOCCOCCOCCOCCC(=O)N[C@@H](CCC(=O)NCCCC[C@@H]2NC(=O)[C@@H](Cc3ccccc3)NC(=O)[C@H](CC(=O)O)NC(=O)CNC(=O)[C@H](CCCNC(=N)N)NC2=O)C(=O)NCCCC[C@@H]2NC(=O)[C@@H](Cc3ccccc3)NC(=O)[C@H](CC(=O)O)NC(=O)CNC(=O)[C@H](CCCNC(=N)N)NC2=O)C(=O)NCCCC[C@@H]2NC(=O)[C@@H](Cc3ccccc3)NC(=O)[C@H](CC(=O)O)NC(=O)CNC(=O)[C@H](CCCNC(=N)N)NC2=O)NC(=O)[C@@H](Cc2ccccc2)NC(=O)[C@H](CC(=O)O)NC(=O)CNC1=O [indium-111 labelled] |  |  | athymic nude mice, female, U-87 MG glioma xenograft, U-87 MG tumour | intravenous, 3 µCi, 1 h |  | tissue uptake | 10.7 ± 2.41 %ID/g |
| CCCC[C@H](NC(=O)CCCCCCCNC(=O)c1ccc(NN)nc1)C(=O)N[C@H]1CC(=O)NCCCC[C@@H](C(N)=O)NC(=O)[C@H](Cc2c[nH]c3ccccc23)NC(=O)[C@H](CCCNC(=N)N)NC(=O)[C@@H](Cc2ccccc2)NC(=O)[C@H](Cc2c[nH]cn2)NC1=O [technetium-99m labelled] |  |  | C57 mouse, B16/F1 melanoma, blood | 2 h, with: L-lysine 12 mg co-injected |  | tissue uptake | 0.18 ± 0.13 %ID/g |
| COc1cccc2c1C(=O)c1c(O)c3c(c(O)c1C2=O)C[C@@](O)(C(=O)CO)C[C@@H]3O[C@H]1C[C@H](NC(=N)CCCSSC[C@@H]2NC(=O)[C@H](CCCNC(=N)N)NC(=O)[C@H](Cc3c[nH]c4ccccc34)NC(=O)[C@H](CCCNC(=N)N)NC(=O)[C@H](Cc3c[nH]c4ccccc34)NC(=O)[C@H](CCCCNC(=O)CCN)NC(=O)[C@H](Cc3c[nH]c4ccccc34)NC(=O)[C@H](CCCNC(=N)N)NC(=O)[C@H](Cc3c[nH]c4ccccc34)NC(=O)[C@H](CCCNC(=N)N)NC2=O)[C@H](O)[C@H](C)O1 | C2C12 cells | MTT |  | concentration not given, 72 h | baseline: control | viability | 71% |
| CSCC[C@H](NC(=O)[C@H](CC(C)C)NC(=O)[C@H](Cc1c[nH]cn1)NC(=O)CNC(=O)[C@@H](NC(=O)[C@H](C)NC(=O)[C@H](Cc1c[nH]c2ccccc12)NC(=O)[C@H](CCC(N)=O)NC(=O)CCCCCNC(=O)CNC(=O)CNC(=O)CNC(=O)CSC(C)=O)C(C)C)C(N)=O [technetium-99m labelled] |  |  | nude mouse, PC-3 xenograft, lung | 90 min |  | tissue uptake | 1.05 ± 0.19 %ID/g |

Excerpt of the above:
| SMILES | tested on | assay | system | setting | how to read | endpoint | value |
| --- | --- | --- | --- | --- | --- | --- | --- |
| CCCNC(=O)[C@H](CC(C)C)NC(=O)[C@H](Cc1c[nH]cn1)NC(=O)CNC(=O)[C@@H](NC(=O)[C@H](C)NC(=O)[C@H](Cc1c[nH]c2ccccc12)NC(=O)[C@H](CCC(N)=O)NC(=O)[C@@H](Cc1ccccc1)NC(=O)CCCCCNC(=O)CN1CCN(CC(=O)O)CCN(CC(=O)O)CCN(CC(=O)O)CC1)C(C)C [indium-111 labelled] | Gastrin-releasing peptide receptor (Mus musculus, UniProt P21729) | biodistribution | CF-1 mice, kidneys | intravenous, 1 h, with: bombesin 100 µg, blocking |  | tissue uptake | 1.44 ± 0.26 %ID/g |
